Experimental data collected from several papers.
Every numbered part comes from another study and shows a few of its results, in no order. Changes are numbered by the printed parent chain.

Sample 1 — technique: protein binding microarray; form: double-stranded DNA, one strand shown; sample: in vitro; tested at: not given; reference: not given; reading: higher = stronger binding
Target: Histone acetyltransferase KAT6A, winged helix 1, GST fusion (KAT6A, Homo sapiens, UniProt Q92794, residues 1-85)
Notes: 8-mer, flanks averaged, mean of 2 arrays, mostly near background
Residues (chain): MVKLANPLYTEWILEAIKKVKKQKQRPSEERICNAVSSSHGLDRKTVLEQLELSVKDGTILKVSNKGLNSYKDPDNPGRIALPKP
Sequence | E-score
ATGAAAGA | -0.162
CAACCACG | 0.0139
ATTCCAGC | -0.218
ACCTCCAG | -0.115
CCCTGTCC | -0.0861
AGGTGCTA | -0.11
CCCCAAGG | -0.125
GTGTACAA | 0.0352
GGCTGACC | 0.112
CCCCTAAG | -0.212
AACTGCCC | -0.0283
TTGAGAAA | -0.225
ACAAGACC | -0.0399
CACCTCTG | -0.276
GCATTACC | 0.0172
GCTCGATA | -0.0539

Sample 2 — target: CREB3L2, bZIP domain (human); technique: DHFR protein complementation; sample: yeast; reference: wild-type JUN-FOS pair; reading: higher = stronger binding
Notes: single substitutions, most at no-binding floor
Parent: JUN, bZIP domain (human); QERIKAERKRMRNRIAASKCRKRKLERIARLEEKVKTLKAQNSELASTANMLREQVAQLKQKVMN; partner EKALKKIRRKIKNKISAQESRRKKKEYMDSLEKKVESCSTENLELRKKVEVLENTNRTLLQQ
Substitution | binding fitness
M51W | -1.51 natural log
K34T | -1.49 natural log
A29W | -1.55 natural log
T37E | -1.5 natural log
E44F | -1.45 natural log
K36R | -1.51 natural log
R53V | -1.53 natural log
Q41F | -1.74 natural log
V35A | -1.36 natural log
L52K | -1.5 natural log
T37K | -1.43 natural log
E54S | -1.52 natural log
A49K | -1.55 natural log
R30S | -1.43 natural log
R53A | -1.39 natural log
L52A | -1.47 natural log
V35Y | -1.51 natural log
L45E | -1.59 natural log

Sample 3 — technique: DHFR PCA, deep sequencing; sample: yeast; added: (+)-ABA 2500 µM; reference: wild-type fitted maximum; reading: higher = stronger binding
Target: ABI1, truncated, D143A, DHFR fusion (Arabidopsis thaliana)
Notes: methotrexate growth selection, single substitutions
Parent: PYL1, truncated, DHFR fusion (Arabidopsis thaliana); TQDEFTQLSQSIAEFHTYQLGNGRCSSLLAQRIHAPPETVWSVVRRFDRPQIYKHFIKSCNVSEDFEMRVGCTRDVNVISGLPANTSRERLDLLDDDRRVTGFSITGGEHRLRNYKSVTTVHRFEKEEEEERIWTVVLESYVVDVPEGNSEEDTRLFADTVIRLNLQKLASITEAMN; partner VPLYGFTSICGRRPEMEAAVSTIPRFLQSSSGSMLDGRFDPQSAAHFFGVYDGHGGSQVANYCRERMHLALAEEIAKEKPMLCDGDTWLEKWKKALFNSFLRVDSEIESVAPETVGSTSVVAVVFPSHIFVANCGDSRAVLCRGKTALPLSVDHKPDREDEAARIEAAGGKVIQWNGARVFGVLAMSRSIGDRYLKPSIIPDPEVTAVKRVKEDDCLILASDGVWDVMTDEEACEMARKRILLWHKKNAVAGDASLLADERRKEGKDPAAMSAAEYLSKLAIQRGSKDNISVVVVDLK
Substitution | relative binding score
I162A | 71.6%
T173R | 54.7%
L20R | 97.9%
V142Y | 87.3%
H16P | 29.4%
R123N | 108%
L8S | 93.3%
G102L | 16.5%
Q167T | 96%
I52T | 96.4%
E67P | 87.1%
E109P | 85.5%
T120K | 28%
N77F | 96.1%
Q19V | 99.8%
L28T | 95.1%
N22D | 103%
T39W | 93.6%
K54T | -3.34%
Q10L | 92.2%
D65S | 96.3%

Sample 4 — target: UBE2C UBC core domain (UniProt O00762); technique: yeast two-hybrid; sample: yeast; notes: mostly zero background; reference: not given; reading: higher = stronger interaction
Sequence of UniProt O00762 (whole entry, looked up): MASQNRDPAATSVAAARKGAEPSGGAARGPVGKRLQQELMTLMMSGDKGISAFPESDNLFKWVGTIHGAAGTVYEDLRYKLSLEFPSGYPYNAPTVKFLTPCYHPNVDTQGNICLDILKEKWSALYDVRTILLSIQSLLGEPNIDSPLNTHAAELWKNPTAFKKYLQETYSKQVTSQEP
B1: TRIM31 RING domain (UniProt Q9BZY9); chain FVNKLQEEVICPICLDILQKPVTIDCGHNFCLKCITQIGETSCGFFKCPLCKTSVRKNAIRF
B2: RNF166 RING domain (UniProt Q96A37); chain GDSGLEAQYTCPICLEVYHRPVAIGSCGHTFCGECLQPCLQVPSPLCPLCRLPFDPKKVDK
B3: DEF8 RING domain (UniProt Q6ZN54); chain AGRLGCSLTEIHTLFAKHIKLDCERCQAKGFVCELCREGDVLFPFDSHTSVCADCSAVFHRDCYYDNSTTCPKCARLSLRK
B4: RNF31 RING domain (UniProt Q96EP0); chain AFLRRLLAQECAVCGWALPHNRMQALTSCECTICPDCFRQHFTIALKEKHITDMVCPACGRPDLTDDTQLL
B5: RNF2 RING domain (UniProt Q99496); chain SPRSLHSELMCPICLDMLKNTMTTKECLHRFCADCIITALRSGNKECPTCRKKLVSKRSLR
B6: TRIM22 RING domain (UniProt Q8IYM9); chain VKVDIEKEVTCPICLELLTEPLSLDCGHSFCQACITAKIKESVIISRGESSCPVCQTRFQPGNLRP
B7: ANAPC11 RING domain (UniProt Q9NYG5); chain GICRMAFNGCCPDCKVPGDDCPLVWGQCSHCFHMHCILKWLHAQQVQQHCPMCRQEWKFKE
B8: TRIM26 RING domain (UniProt Q12899); chain PLRSLEEEVTCSICLDYLRDPVTIDCGHVFCRSCTTDVRPISGSRPVCPLCKKPFKKENIRP
B9: TRIM37 RING domain (UniProt O94972); chain SVESIAEVFRCFICMEKLRDARLCPHCSKLCCFSCIRRWLTEQRAQCPHCRAPLQLRELVN
B10: MYCBP2 RING domain (UniProt O75592); chain TSLKQDADDMCMICFTEALSAAPAIQLDCSHIFHLQCCRRVLENRWLGPRITFGFISCPICKNKINHIVLKD
Sequence | lacZ reporter activity
B1 (TRIM31 RING domain) | 0
YCEMGSTFQLCKICAENDKDVKIEPCGHLMCTSCLTAWQESDGQGCPFCRCEIKGTEPII (CBLB RING domain (UniProt Q13191)) | 0
B2 (RNF166 RING domain) | 0
B3 (DEF8 RING domain) | 0
B4 (RNF31 RING domain) | 0
QVQSRTKIEECVVCSDKKAAVLFQPCGHMCACENCANLMKKCVQCRAVVERRVPFI (MIB1 RING domain (UniProt Q86YT6)) | 0
B5 (RNF2 RING domain) | 0
B6 (TRIM22 RING domain) | 0
AEADPLGRFTCPVCLEVYEKPVQVPCGHVFCSACLQECLKPKKPVCGVCRSALAPGVRAV (RNF114 RING domain (UniProt Q9Y508)) | 0
RYRQMEERITCPICIDSHIRLVFQCGHGACAPCGSALSACPICRQPIRDRIQIF (MIB2 RING domain (UniProt Q96AX9)) | 0
B7 (ANAPC11 RING domain) | 0
B8 (TRIM26 RING domain) | 0
B9 (TRIM37 RING domain) | 0
KPDKMEETLTCIICQDLLHDCVSLQPCMHTFCAACYSGWMERSSLCPTCRCPVERICKNH (CHFR RING domain (UniProt Q96EP1)) | 0
B10 (MYCBP2 RING domain) | 0

Sample 5 — target: CCNE2, cyclin fold, Cln2 fusion (human); technique: yeast growth competition, sequencing; sample: yeast; notes: strong parent motif; reference: not given; reading: higher = stronger binding
Parent: INSM1 docking peptide (human); PKAIRKLHFEDEV
Substitution | normalised enrichment score
PKADRKLHFEDEV [I4D] | -0.0596
PKAIRKLFFEDEV [H8F] | 2.36
PKRIRKLHFEDEV [A3R] | 0.288
PKAIRKLMFEDEV [H8M] | 1.3
PKLIRKLHFEDEV [A3L] | 0.212
PCAIRKLHFEDEV [K2C] | 1.63
PKAIRKLHFCDEV [E10C] | 1.2
PKAIRKPHFEDEV [L7P] | 0.026
PKAIRKLHCEDEV [F9C] | 0.144
PPAIRKLHFEDEV [K2P] | 1.07
PKAIRKLHTEDEV [F9T] | 0.152
PKAWRKLHFEDEV [I4W] | 0.256
PKAIRKLHFETEV [D11T] | 1.05
PKACRKLHFEDEV [I4C] | 2.81
PKAICKLHFEDEV [R5C] | 0.168
PGAIRKLHFEDEV [K2G] | 1.91
PKAIRKLHFEDGV [E12G] | 1.77

Repeated from above (sample 3):
Substitution | relative binding score
T173R | 54.7%
L20R | 97.9%
V142Y | 87.3%
H16P | 29.4%
R123N | 108%
L8S | 93.3%
G102L | 16.5%
Q167T | 96%
I52T | 96.4%
E67P | 87.1%
E109P | 85.5%
T120K | 28%
N77F | 96.1%
Q19V | 99.8%
